# Published values from different studies.
# Lines come from different studies, so protocols differ. Numbers after ± are the reported error.
SMILES,cell line,test,conditions,scale,quantity,result
Nc1cc2cccnc2c2ncccc12,HFF-1 and PC-3,MTT,"48 h, dark",reference: IC50 HFF-1 over IC50 PC-3,selectivity ratio,2.1
CCCCc1oc2ccc(NS(C)(=O)=O)cc2c1C(=O)c1ccc(OCCCN(CCCC)CCCC)cc1,human embryonic stem cell aggregates,"mRNA level, microarray, measured: ONECUT1","0.5 µM, 120 h","reference: untreated, up-regulated",fold change,4.2 fold
Cc1csc(-c2nnc(Nc3ccc(Oc4ncccc4-c4ccnc(N)n4)cc3)c3ccccc23)c1,HD-MB03,cell growth,"168 h, DMSO",,IC50,1.97 nM
CCCCc1nc(Cl)c(CO)n1Cc1ccc(-c2ccccc2-c2nn[nH]n2)cc1,human PBMC,"RNA-seq, measured: STAB1 mRNA","10 µg/mL, 24 h",reference: untreated control,log2 fold change,-1.54
CC(=O)O[C@@H]1CC[C@@]2(C)[C@@H](CC[C@]3(C)[C@@H]2C(=O)C=C2[C@@H]4[C@@H](C)[C@H](C)CC[C@]4(C)CC[C@]23C)[C@@]1(C)C(=O)O,RAW264.7,DCF fluorescence,"concentration not given, 24 h, together with: LPS",reference: LPS alone,intracellular ROS level,decreased
CCn1cc(-c2cc(Cn3ccnc3)cc3c2CCN([C@H](c2cc(OC)ccn2)C2CC2)C3=O)c(C(F)(F)F)n1,RKO,"cell growth, inhibitor",120 h,,EC50,9090 nM
CC1(C)CN=C(N2CCN(c3ncnc4sc(CC(F)(F)F)cc34)CC2)S1,HD-MB03,,"concentration not given, together with: ribociclib NG",reference: ribociclib over DMSO,fold change in IC50,0.674
COc1ncnc(C2CC2)c1-c1ncc2cnn(Cc3ccc(-c4nc(C(F)(F)F)cn4C(C)C)cc3)c2n1,"CHP-212 resistant sublines, USP7 V517F heterozygous",,50 µM,,viability,42%
O=C(O)/C=C/c1ccc(O)c(O)c1,H9c2,"real-time PCR, measured: Tnf-α, Il-1β and Il-6","concentration not given, together with: H2O2",,mRNA level,inhibited
C=CC1=C(C)c2cc3[n-]c(cc4nc(cc5[n-]c(cc1n2)c(C)c5C=C)C(C)=C4CCC(=O)O)c(CCC(=O)O)c3C.[Zn+2],SH-SY5Y,"RNA-seq, measured: SPHK1 mRNA","5 µM, 5 h",reference: untreated cells,fold change,1.99
CC(=O)Nc1cccc(-n2c(=O)n(C3CC3)c(=O)c3c(Nc4ccc(I)cc4F)n(C)c(=O)c(C)c32)c1,HD-MB03,cell growth,"168 h, DMSO",,IC50,17.1 nM
C=CCn1c(=O)c2cnc(Nc3ccc(N4CCN(C)CC4)cc3)nc2n1-c1ccc2c(n1)[C@@](O)(CC)CC2,NCI-H1048,flow cytometry,concentration not given,,S phase cells,18.8%
CCN(CCCOc1ccc2c(Nc3cc(CC(=O)Nc4cccc(F)c4)n[nH]3)ncnc2c1)CCOP(=O)(O)O,HD-MB03,cell growth,"168 h, DMSO",,IC50,297 nM
COc1cc(/C=C/C(=O)N2CCC=CC2=O)cc(OC)c1OC,MDA-MB-468,"qRT-PCR, measured: HIF1A","30 µM, 6 h",reference: time zero,mRNA level,124 ± 9.1%
CCn1cc(-c2cc(Cn3ccoc3=N)cc3c2CCN([C@@H](C)c2cc(OC)ccn2)C3=O)c(C(F)(F)F)n1,NCI-H2126,"cell growth, inhibitor",120 h,,EC50,> 30000 nM
Cn1cc(-c2ccc(-c3cncc(Cl)c3N3CCC4(CCNC4=O)CC3)cc2)cn1,COLO 205,"gene expression, microarray, measured: CYR61 mRNA","concentration not given, 6 h",reference: untreated cells,log2 fold change,1.44
Nc1cccc2c1C(=O)N(C1CCC(=O)NC1=O)C2=O (stereo not drawn),RPMI-8226,"flow cytometry, measured: CD83",concentration not given,reference: comparator compound alone,surface marker level,157%
Cc1cc(C)nc(SCC(=O)Nc2ncc(Cc3cccc(OCc4cn(Cc5ccccc5C)nn4)c3)s2)n1,HGC-27,"cell viability, MTS",10 µM,,inhibition,40.6 ± 4.5%
O=C(c1ccc2[nH]ccc2c1)N1CCN(S(=O)(=O)c2ccc3[nH]c(=O)oc3c2)CC1,HL-60,"NUDT15 inhibitor, mass spectrometry","10 µM, 16 h, together with: 6-thioguanine 1 µM",higher = more incorporation,6-thio-dGTP in DNA,2890 a.u.
COc1cnc2cccc(N3CCc4c(cc(Cn5ccnc5C)cc4-c4cn(C)nc4C(F)(F)F)C3=O)c2c1,HT115,"cell growth, inhibitor",120 h,,EC50,335 nM
Cc1nc(NC(=O)N2CCC[C@H]2C(N)=O)sc1-c1ccnc(C(C)(C)C(F)(F)F)c1,HGC-27,"growth rate inhibition, CellTiter-Glo",120 h,,IC50,4440 nM

# A few entries again:
SMILES,cell line,test,conditions,scale,quantity,result
COc1cc(/C=C/C(=O)N2CCC=CC2=O)cc(OC)c1OC,MDA-MB-468,"qRT-PCR, measured: HIF1A","30 µM, 6 h",reference: time zero,mRNA level,124 ± 9.1%
CCn1cc(-c2cc(Cn3ccnc3)cc3c2CCN([C@H](c2cc(OC)ccn2)C2CC2)C3=O)c(C(F)(F)F)n1,RKO,"cell growth, inhibitor",120 h,,EC50,9090 nM
